# Assay results collected from several papers.
# Compare with care: the assays were run in different laboratories.
# Sample: plasma
SMILES,test,test system,setting,endpoint,result
CC[C@H](C)[C@H](NC(=O)[C@H](CC(C)C)NC(=O)[C@H](Cc1c[nH]c2ccccc12)NC(=O)[C@H](C)NC(=O)[C@@H](NC(=O)[C@H](Cc1ccccc1)NC(=O)[C@H](CC(=O)O)NC(=O)[C@H](CCCNC(=N)N)NC(=O)[C@H](C)NC(=O)[C@H](C)NC(=O)[C@H](CC(C)C)NC(=O)[C@H](C)NC(=O)[C@H](CC(=O)O)NC(=O)[C@H](CC(C)C)NC(=O)[C@@H](NC(=O)[C@@H](NC(=O)[C@H](C)NC(=O)[C@H](CC(C)C)NC(=O)[C@H](CCC(=O)O)NC(=O)[C@H](CO)NC(=O)[C@H](CO)NC(=O)[C@H](Cc1ccccc1)NC(=O)[C@@H](NC(=O)CNC(=O)[C@H](CCC(=O)O)NC(=O)CNC(=O)[C@@H](N)Cc1cnc[nH]1)[C@@H](C)O)[C@@H](C)O)[C@@H](C)CC)[C@@H](C)CC)C(=O)N[C@@H](C)C(=O)N[C@H](C(=O)N[C@@H](CCCCN)C(=O)N[C@H](C(=O)N[C@H](C(=O)N[C@@H](CC(=O)O)C(=O)N[C@@H](CCCCN)C(=O)N[C@@H](CCCCN)C(=O)N[C@@H](CCCCN)C(=O)N[C@@H](CCCCN)C(=O)N[C@@H](CCCCN)C(=O)N[C@@H](CCCCN)C(N)=O)[C@@H](C)O)[C@@H](C)CC)[C@@H](C)O,,healthy human subjects,"intravenous infusion, 1 mg, 15 min infusion",tmax,0.42 h
CCc1cc(Nc2nc(-c3ccc(-n4cnc(C)c4)c(F)c3)cs2)c(C)cc1C,,"human, both sexes","oral, 100 mg, day 1, multiple dose, geometric mean",Tmax,3.9 h
O=C(CCc1ccc(CNC(C(=O)OC2CCCC2)C2CCCCC2)cn1)NO (stereo not drawn),,human,"oral, 5 mg, single dose, median",Tmax,0.75 h
CC[C@H](C)[C@H](NC(=O)[C@H](CC(C)C)NC(=O)[C@H](Cc1c[nH]c2ccccc12)NC(=O)[C@H](C)NC(=O)[C@@H](NC(=O)[C@H](Cc1ccccc1)NC(=O)[C@H](CC(=O)O)NC(=O)[C@H](CCCNC(=N)N)NC(=O)[C@H](C)NC(=O)[C@H](C)NC(=O)[C@H](CC(C)C)NC(=O)[C@H](C)NC(=O)[C@H](CC(=O)O)NC(=O)[C@H](CC(C)C)NC(=O)[C@@H](NC(=O)[C@@H](NC(=O)[C@H](C)NC(=O)[C@H](CC(C)C)NC(=O)[C@H](CCC(=O)O)NC(=O)[C@H](CO)NC(=O)[C@H](CO)NC(=O)[C@H](Cc1ccccc1)NC(=O)[C@@H](NC(=O)CNC(=O)[C@H](CCC(=O)O)NC(=O)CNC(=O)[C@@H](N)Cc1c[nH]cn1)[C@@H](C)O)[C@@H](C)O)[C@@H](C)CC)[C@@H](C)CC)C(=O)N[C@@H](C)C(=O)N[C@H](C(=O)N[C@@H](CCCCN)C(=O)N[C@H](C(=O)N[C@H](C(=O)N[C@@H](CC(=O)O)C(=O)N[C@@H](CCCCN)C(=O)O)[C@@H](C)O)[C@@H](C)CC)[C@@H](C)O,,healthy human subjects,"subcutaneous, 5 mg once weekly, day 36 after 6 doses, steady state, median",tmax,24 h
Cn1c(=O)oc2ccc(-c3ccc(CC(C#N)NC(=O)C4CNCCCO4)c(F)c3)cc21 (stereo not drawn),,human,"20 mg once daily, day 28, median",Tmax,1.5 h
CCc1c2c(nc3ccc(O)cc13)-c1cc3c(c(=O)n1C2)COC(=O)[C@]3(O)CC,,human patients,"intravenous, 3 mg/m^2 of parent drug",Tmax,0.25 h
CC[C@H](C)[C@H](NC(=O)[C@H](CC(C)C)NC(=O)[C@H](Cc1c[nH]c2ccccc12)NC(=O)[C@H](C)NC(=O)[C@@H](NC(=O)[C@H](Cc1ccccc1)NC(=O)[C@H](CC(=O)O)NC(=O)[C@H](CCCNC(=N)N)NC(=O)[C@H](C)NC(=O)[C@H](C)NC(=O)[C@H](CC(C)C)NC(=O)[C@H](C)NC(=O)[C@H](CC(=O)O)NC(=O)[C@H](CC(C)C)NC(=O)[C@@H](NC(=O)[C@@H](NC(=O)[C@H](C)NC(=O)[C@H](CC(C)C)NC(=O)[C@H](CCC(=O)O)NC(=O)[C@H](CO)NC(=O)[C@H](CO)NC(=O)[C@H](Cc1ccccc1)NC(=O)[C@@H](NC(=O)CNC(=O)[C@H](CCC(=O)O)NC(=O)CNC(=O)[C@@H](N)Cc1c[nH]cn1)[C@@H](C)O)[C@@H](C)O)[C@@H](C)CC)[C@@H](C)CC)C(=O)N[C@@H](C)C(=O)N[C@H](C(=O)N[C@@H](CCCCN)C(=O)N[C@H](C(=O)N[C@H](C(=O)N[C@@H](CC(=O)O)C(=O)N[C@@H](CCCCN)C(=O)N[C@@H](CCCCN)C(=O)O)[C@@H](C)O)[C@@H](C)CC)[C@@H](C)O,immunoaffinity LC-MS/MS,healthy human subjects,"intravenous infusion, 1 mg single dose, infused over 15 min",tmax,0.63 h
CCCOc1ccc(S(N)(=O)=O)cc1-c1nc2c(CCC)nn(C)c2c(=O)[nH]1,,healthy male humans,"oral, 200 mg udenafil, with: dapoxetine 60 mg",Tmax (median),3.5 h
CN1CCC[C@]1(C)/C=C/S(=O)(=O)NC(=O)Nc1c2c(cc3c1CCC3)CCC2,,human,"oral, 50 mg twice daily, day 14, multiple ascending dose","Tmax after first dose, median",1 h

# Excerpt of the above:
SMILES,test,test system,setting,endpoint,result
CCc1cc(Nc2nc(-c3ccc(-n4cnc(C)c4)c(F)c3)cs2)c(C)cc1C,,"human, both sexes","oral, 100 mg, day 1, multiple dose, geometric mean",Tmax,3.9 h
